Assay results collected from several papers.
Parts stem from different laboratories: compare values within a part only. Positions count from the first letter of the parent shown.

Block 1 — read-out: peptide-MHC binding; form: peptide; concentration: concentration not given
Target: HLA class I histocompatibility antigen, A alpha chain, allele A*25:01 (Homo sapiens, UniProt P04439)
| Sequence | binding |
| --- | --- |
| KQIVIINPM | inactive |
| DEYGPVFVE | inactive |
| FSSCPVAY | inactive |
| LPRERFRKT | inactive |
| RKLTNPANK | inactive |
| YTENTSSYY | inactive |
| DELWRGLLA | inactive |
| YSTVRDLFL | inactive |

Block 2 — target: UBE2W UBC core domain (UniProt Q96B02); method: yeast two-hybrid; matrix: yeast; notes: mostly zero background; relative to: not given; direction: higher = stronger interaction
B1: RNF103 RING domain (UniProt O00237); chain WPADMLHCTECVVCLENFENGCLLMGLPCGHVFHQNCIVMWLAGGRHCCPVCRWPSYKKKQPY
B2: ZMYND11 RING domain (UniProt Q15326); chain DEIDWETENHDWYCFECHLPGEVLICDLCFRVYHSKCLSDEFRLRDSSSPWQCPVCRSIKKKNTNKQEM
B3: MID2 RING domain (UniProt Q9UJV3); chain KMETLESELTCPICLELFEDPLLLPCAHSLCFSCAHRILVSSCSSGESIEPITAFQCPTCRYVISLNHRGL
B4: RNF186 RING domain (UniProt Q9NXI6); chain HSGSTECDLECLVCREPYSCPRLPKLLACQHAFCAICLKLLLCVQDNTWSITCPLCRKVTAVPGGLI
B5: TRIM11 RING domain (UniProt Q96F44); chain LSTNLQEEATCAICLDYFTDPVMTDCGHNFCRECIRRCWGQPEGPYACPECRELSPQRNLRP
Construct (chain): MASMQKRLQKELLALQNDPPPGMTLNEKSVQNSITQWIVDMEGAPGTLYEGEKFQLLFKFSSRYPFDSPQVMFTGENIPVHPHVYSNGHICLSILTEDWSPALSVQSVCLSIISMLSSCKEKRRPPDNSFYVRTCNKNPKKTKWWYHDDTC
| Sequence | lacZ reporter activity |
| --- | --- |
| B1 (RNF103 RING domain) | 9630 |
| B2 (ZMYND11 RING domain) | 0 |
| B3 (MID2 RING domain) | 0 |
| DDVLTKDAGECVICLEELLQGDTIARLPCLCIYHKSCIDSWFEVNRSCPEHPAD (ZNRF1 RING domain (UniProt Q8ND25)) | 0 |
| B4 (RNF186 RING domain) | 2520 |
| B5 (TRIM11 RING domain) | 0 |
| LVKDFNPYITCYICKGYLIKPTTVTECLHTFCKTCIVQHFEDSNDCPRCGNQVHETNPLE (PCGF5 RING domain (UniProt Q86SE9)) | 0 |
| ASEEEFQFLRCQQCQAEAKCPKLLPCLHTLCSGCLEASGMQCPICQAPWPLGADTP (PML RING domain (UniProt P29590)) | 2850 |

Block 3 — target: CCND3, cyclin fold, Cln2 fusion (human); method: yeast growth competition, sequencing; matrix: yeast; notes: weak parent motif; relative to: not given; direction: higher = stronger binding; starting sequence: viral docking peptide; YKVKRRLVFGADD
| Variant | normalised enrichment score |
| --- | --- |
| YKVKRRLVFGHDD [A11H] | 0.364 |
| YKVRRRLVFGADD [K4R] | 0.472 |
| YGVKRRLVFGADD [K2G] | 0.125 |
| YKVKRRLVFGATD [D12T] | 0.388 |
| YEVKRRLVFGADD [K2E] | 0.204 |
| YHVKRRLVFGADD [K2H] | 0.533 |
| YKVHRRLVFGADD [K4H] | 0.273 |
| YKIKRRLVFGADD [V3I] | 0.538 |

Single results of other studies
| Compound | organism | test | conditions | how to read | quantity | result |
| --- | --- | --- | --- | --- | --- | --- |
| CCCCCCNC(=O)n1cc(F)c(=O)[nH]c1=O | Sarcocystis neurona | parasite growth | 10 µM, 96 h, second screen | relative to: untreated | log2 fold change | -1.5 |

Excerpt of the above (block 1):
| Sequence | binding |
| --- | --- |
| KQIVIINPM | inactive |
| DEYGPVFVE | inactive |
